Measurements pooled from the literature.
± marks the error that the study gave.
Ubiquitin carboxyl-terminal hydrolase 39 ZnF-UBD domain: Ubiquitin carboxyl-terminal hydrolase 39, ZnF-UBD domain (Homo sapiens, UniProt Q53GS9)
Sequence of UniProt Q53GS9 (whole entry, looked up): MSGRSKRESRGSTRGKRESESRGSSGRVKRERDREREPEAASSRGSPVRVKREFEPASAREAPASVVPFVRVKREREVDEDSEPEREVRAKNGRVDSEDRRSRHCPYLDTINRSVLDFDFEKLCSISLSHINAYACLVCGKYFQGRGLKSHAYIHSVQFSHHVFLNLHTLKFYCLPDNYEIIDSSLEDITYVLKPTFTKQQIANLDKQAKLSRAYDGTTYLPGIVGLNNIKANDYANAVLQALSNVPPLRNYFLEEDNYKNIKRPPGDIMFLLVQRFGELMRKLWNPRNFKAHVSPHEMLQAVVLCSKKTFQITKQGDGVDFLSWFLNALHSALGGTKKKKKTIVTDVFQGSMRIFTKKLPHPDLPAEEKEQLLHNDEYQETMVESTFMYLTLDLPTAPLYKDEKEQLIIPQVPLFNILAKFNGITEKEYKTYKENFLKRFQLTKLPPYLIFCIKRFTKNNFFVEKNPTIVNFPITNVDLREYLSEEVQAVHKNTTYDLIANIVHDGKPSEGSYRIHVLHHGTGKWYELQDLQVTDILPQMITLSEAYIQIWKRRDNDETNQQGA
Sequence of UniProt P10721 (whole entry, unmodified, looked up): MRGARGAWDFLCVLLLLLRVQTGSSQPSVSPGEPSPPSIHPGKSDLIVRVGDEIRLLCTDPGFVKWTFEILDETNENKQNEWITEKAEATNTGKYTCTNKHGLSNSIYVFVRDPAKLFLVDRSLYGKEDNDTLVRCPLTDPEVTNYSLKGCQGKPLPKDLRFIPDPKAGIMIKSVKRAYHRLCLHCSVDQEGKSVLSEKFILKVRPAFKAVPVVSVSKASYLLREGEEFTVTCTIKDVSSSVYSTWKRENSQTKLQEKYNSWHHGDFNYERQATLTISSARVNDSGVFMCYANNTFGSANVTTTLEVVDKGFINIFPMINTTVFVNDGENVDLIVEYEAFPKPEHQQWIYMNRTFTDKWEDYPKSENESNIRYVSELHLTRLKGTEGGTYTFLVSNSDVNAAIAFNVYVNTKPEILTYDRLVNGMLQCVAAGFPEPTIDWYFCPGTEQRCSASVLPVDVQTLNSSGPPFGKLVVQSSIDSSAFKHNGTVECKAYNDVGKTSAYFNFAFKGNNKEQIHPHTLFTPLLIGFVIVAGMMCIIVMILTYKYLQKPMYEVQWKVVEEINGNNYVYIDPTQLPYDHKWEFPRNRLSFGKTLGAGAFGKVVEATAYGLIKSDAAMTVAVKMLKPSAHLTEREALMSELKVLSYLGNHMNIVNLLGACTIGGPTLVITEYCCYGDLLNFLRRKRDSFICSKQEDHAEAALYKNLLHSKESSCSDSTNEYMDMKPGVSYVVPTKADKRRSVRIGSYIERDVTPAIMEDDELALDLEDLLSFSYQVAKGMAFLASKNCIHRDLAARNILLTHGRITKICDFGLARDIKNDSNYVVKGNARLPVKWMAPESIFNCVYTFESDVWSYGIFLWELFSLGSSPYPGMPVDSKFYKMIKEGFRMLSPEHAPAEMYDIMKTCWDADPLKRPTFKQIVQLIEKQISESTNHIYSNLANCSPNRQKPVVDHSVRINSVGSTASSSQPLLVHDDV
Sequence of UniProt P42337 (whole entry, unmodified, looked up): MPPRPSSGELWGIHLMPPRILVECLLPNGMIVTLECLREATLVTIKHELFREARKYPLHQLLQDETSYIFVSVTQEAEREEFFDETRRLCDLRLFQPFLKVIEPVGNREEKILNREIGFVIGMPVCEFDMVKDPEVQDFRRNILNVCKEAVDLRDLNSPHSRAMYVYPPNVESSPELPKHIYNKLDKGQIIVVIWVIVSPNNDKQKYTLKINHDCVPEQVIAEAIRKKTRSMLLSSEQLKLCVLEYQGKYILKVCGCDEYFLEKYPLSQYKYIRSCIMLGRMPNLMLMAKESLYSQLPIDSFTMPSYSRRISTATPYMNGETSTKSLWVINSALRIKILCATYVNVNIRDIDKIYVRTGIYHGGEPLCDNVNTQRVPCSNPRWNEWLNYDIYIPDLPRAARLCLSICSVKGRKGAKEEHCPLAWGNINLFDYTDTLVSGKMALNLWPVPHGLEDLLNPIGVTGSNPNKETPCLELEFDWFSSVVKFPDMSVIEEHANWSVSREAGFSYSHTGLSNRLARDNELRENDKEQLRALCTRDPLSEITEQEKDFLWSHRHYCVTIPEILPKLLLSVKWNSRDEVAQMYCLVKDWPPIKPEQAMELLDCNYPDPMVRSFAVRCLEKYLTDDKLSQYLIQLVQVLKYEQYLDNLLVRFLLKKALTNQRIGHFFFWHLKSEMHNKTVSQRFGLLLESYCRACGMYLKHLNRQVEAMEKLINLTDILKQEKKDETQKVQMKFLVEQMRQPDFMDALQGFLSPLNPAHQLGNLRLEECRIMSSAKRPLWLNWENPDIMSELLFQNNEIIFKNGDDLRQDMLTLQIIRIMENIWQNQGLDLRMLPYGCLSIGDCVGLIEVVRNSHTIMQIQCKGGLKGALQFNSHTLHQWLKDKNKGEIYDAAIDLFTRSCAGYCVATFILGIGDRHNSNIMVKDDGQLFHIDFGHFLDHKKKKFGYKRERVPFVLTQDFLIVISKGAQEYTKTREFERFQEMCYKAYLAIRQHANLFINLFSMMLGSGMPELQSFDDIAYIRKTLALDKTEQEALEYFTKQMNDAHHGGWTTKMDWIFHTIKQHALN
Sequence of UniProt P43250 (whole entry, looked up): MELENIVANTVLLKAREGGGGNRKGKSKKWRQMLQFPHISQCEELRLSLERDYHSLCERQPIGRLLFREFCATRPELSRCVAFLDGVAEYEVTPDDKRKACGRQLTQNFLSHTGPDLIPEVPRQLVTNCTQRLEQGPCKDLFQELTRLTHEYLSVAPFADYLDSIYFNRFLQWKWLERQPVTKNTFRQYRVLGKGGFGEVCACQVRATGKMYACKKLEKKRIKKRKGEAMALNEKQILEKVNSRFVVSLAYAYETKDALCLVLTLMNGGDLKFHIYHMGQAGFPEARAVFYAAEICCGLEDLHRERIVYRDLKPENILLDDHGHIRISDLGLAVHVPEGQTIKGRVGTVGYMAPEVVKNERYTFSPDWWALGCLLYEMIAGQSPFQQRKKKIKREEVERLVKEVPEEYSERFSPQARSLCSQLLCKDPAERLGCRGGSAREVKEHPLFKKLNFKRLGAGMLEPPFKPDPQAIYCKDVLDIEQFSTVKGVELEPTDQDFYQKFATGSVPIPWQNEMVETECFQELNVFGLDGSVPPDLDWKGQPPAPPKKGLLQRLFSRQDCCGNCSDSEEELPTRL
Sequence of UniProt P07333 (whole entry, looked up): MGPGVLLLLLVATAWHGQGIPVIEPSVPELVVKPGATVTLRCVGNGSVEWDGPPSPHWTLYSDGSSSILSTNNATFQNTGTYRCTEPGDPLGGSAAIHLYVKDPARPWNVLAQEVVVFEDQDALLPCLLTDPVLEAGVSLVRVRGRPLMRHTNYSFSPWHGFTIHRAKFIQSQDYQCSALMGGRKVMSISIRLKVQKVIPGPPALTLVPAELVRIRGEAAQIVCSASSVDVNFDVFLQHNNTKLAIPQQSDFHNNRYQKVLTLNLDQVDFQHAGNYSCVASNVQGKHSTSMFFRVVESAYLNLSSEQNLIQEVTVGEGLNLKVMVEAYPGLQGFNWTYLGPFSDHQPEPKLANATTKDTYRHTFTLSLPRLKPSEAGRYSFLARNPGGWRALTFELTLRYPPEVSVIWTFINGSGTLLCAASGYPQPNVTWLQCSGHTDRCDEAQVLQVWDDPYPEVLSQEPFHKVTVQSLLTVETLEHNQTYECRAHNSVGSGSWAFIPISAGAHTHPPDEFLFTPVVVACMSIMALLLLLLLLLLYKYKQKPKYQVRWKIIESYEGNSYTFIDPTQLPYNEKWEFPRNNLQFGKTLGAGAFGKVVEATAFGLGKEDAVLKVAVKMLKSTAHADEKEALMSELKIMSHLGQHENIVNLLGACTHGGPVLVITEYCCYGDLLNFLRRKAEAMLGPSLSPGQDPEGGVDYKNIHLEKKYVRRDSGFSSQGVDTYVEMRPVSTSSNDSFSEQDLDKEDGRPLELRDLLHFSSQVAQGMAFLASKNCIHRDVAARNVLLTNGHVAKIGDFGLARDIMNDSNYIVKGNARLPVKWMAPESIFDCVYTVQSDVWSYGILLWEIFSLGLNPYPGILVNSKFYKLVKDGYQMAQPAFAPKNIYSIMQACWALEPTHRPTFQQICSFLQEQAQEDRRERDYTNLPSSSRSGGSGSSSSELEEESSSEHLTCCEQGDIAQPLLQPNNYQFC
Sequence of UniProt Q9Y345 (whole entry, looked up): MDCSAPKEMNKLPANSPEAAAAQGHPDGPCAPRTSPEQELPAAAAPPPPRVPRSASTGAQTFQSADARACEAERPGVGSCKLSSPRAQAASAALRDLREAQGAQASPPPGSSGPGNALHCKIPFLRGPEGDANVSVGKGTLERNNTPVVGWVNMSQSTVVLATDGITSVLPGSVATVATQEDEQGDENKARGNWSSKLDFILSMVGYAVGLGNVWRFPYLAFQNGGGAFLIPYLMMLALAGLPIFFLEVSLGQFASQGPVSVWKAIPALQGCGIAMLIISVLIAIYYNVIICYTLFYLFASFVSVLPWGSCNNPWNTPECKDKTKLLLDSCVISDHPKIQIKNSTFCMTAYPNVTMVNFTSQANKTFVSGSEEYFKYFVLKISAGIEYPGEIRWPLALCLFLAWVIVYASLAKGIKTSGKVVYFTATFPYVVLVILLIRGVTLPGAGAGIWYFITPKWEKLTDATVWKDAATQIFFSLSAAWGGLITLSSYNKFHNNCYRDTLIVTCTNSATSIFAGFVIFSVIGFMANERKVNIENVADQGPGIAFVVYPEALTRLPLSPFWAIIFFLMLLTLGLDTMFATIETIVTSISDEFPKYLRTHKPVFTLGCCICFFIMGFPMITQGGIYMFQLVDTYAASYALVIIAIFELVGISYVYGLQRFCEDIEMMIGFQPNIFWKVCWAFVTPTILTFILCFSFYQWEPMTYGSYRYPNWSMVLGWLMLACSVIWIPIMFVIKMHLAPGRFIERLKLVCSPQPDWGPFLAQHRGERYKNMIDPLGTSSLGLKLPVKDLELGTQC

Compound | tested on | test | conditions | how to read | endpoint | result
O=C(O)c1ccc(Nc2ncc3c(n2)-c2ccc(Cl)cc2C(c2c(F)cccc2F)=NC3)cc1 | SGK2(h) | kinase activity | 1 µM | – | remaining activity | 100%
NC/C(=C\F)COc1cccc(Cn2c(=S)[nH]c(=O)c3[nH]cnc32)c1 | Peroxidasin homolog (PXDN, Homo sapiens, UniProt Q92626) | Amplex UltraRed | 40 µM, mean of replicates | relative to: control | remaining activity | 12.4%
Cc1ccc(NC(=O)c2ccc(C)c(C(F)(F)F)c2)cc1C#Cc1nn(C2CCC(O)CC2)c2ncnc(N)c12 (stereo not drawn) | Phosphatidylinositol 4,5-bisphosphate 3-kinase catalytic subunit alpha isoform, with p85 alpha (Pik3ca, Mus musculus, UniProt P42337, E542K) | enzyme activity, inhibitor | 10 µM, p110a(E542K)/p85a)(m mouse, together with: ATP 10 µM | – | remaining activity | 92%
Nc1nc(CC(=O)O)cs1 | Ubiquitin carboxyl-terminal hydrolase 39 ZnF-UBD domain | – | – | – | Kd | > 1000 µM
NCCCC(=O)O | – | binding, equilibrium dialysis LC-MS | 5 µM, thermostabilized A2AR-BRIL construct | relative to: no-protein control, direction not given | z-scored log2 fold change | 0.0204
COc1cc(-c2cncc3c2CN(C)Cc2cc(N4CCNCC4)ccc2-3)cc(OC)c1OC | CSF1R (Homo sapiens, UniProt P07333) | kinase activity | 1 µM, human enzyme, together with: ATP 10 µM | relative to: DMSO control | remaining activity | 105%
COc1cc(N2CCN(C)CC2)ccc1Nc1nc(N)n(C(=S)NCc2c(Cl)cccc2Cl)n1 | DYRK1A (Homo sapiens, UniProt Q13627) | enzyme activity | 10 µM | relative to: control | remaining activity | 6.8%
O=C(O)CCn1c(=O)oc2ccccc21 | Ubiquitin carboxyl-terminal hydrolase 39 ZnF-UBD domain | – | – | – | Kd | > 1000 µM
C=CC(=O)N1CCC[C@@H](n2nc(-c3ccc(Oc4ccccc4)cc3)c3c(N)ncnc32)C1 | IRAK1 (Homo sapiens, UniProt P51617) | – | 10 µM | – | remaining activity | 143%
COc1ccc(F)cc1C(=O)NCc1ccc(-c2nn([C@@H](C)C(F)(F)F)c(N)c2C(N)=O)cc1 | YES1 (Homo sapiens, UniProt P07947) | kinase activity, inhibitor, HotSpot radiometric | 1000 nM, together with: ATP at Km | – | remaining activity | 38.6 ± 0.5%
CC(C)(CO[P@@](=O)(O)O[P@@](=O)(O)OC[C@H]1O[C@@H](n2cnc3c(N)ncnc32)[C@H](O)[C@@H]1OP(=O)(O)O)[C@@H](O)C(=O)NCCC(=O)NCCSC(=O)CC(=O)O | – | binding, equilibrium dialysis LC-MS | 5 µM, thermostabilized A2AR-BRIL construct | relative to: no-protein control, direction not given | z-scored log2 fold change | 0.0788
COc1cc(F)ccc1-c1ncnc(Nc2cccc(C[S@](C)(=N)=O)c2)n1 | GRK6 (Homo sapiens, UniProt P43250) | kinase activity | 10 µM, together with: 10 µM ATP | – | remaining activity | 104%
CNCC(=O)O | Sodium- and chloride-dependent glycine transporter 2 (Homo sapiens, UniProt Q9Y345) | glycine uptake, inhibitor, [3H]glycine uptake | 100 µM, log concentration -1, together with: [3H]glycine | relative to: no inhibitor | remaining activity | 91.5%
O=C(NC1CCC1)c1ccc2nc(-c3cccc(NS(=O)(=O)NCCN4CCCCC4)c3)cn2c1 | KIT (Homo sapiens, UniProt P10721, T670I/V559D) | enzyme activity | 10 µM | – | remaining activity | 92%
COc1cc(Nc2ncc3c(n2)-c2ccc(Cl)cc2C(c2c(F)cccc2OC)=NC3)ccc1C(=O)O | ERBB2 | kinase activity | 1 µM | – | remaining activity | 65%

A few entries again:
Compound | tested on | test | conditions | how to read | endpoint | result
CC(C)(CO[P@@](=O)(O)O[P@@](=O)(O)OC[C@H]1O[C@@H](n2cnc3c(N)ncnc32)[C@H](O)[C@@H]1OP(=O)(O)O)[C@@H](O)C(=O)NCCC(=O)NCCSC(=O)CC(=O)O | – | binding, equilibrium dialysis LC-MS | 5 µM, thermostabilized A2AR-BRIL construct | relative to: no-protein control, direction not given | z-scored log2 fold change | 0.0788
